Measurements pooled from the literature.
A part holds a random share of what one study measured. Substitutions count along the parent as printed.

Study 1 — method: protein-binding microarray; form: double-stranded DNA, one strand shown; sample: in vitro; tested at: 0.8 µM; notes: whole 60-bp probe, no competitor; reading: higher = stronger binding; measurement: fluorescence intensity; constant ends, left off below: … GTCTTGATTCGCTTGACGCTGCTG
Target: Centromere-binding protein 1, full length, N-terminal tag (CBF1, Saccharomyces cerevisiae, UniProt P17106, residues 1-351)
Sequence of UniProt P17106 (whole entry, looked up): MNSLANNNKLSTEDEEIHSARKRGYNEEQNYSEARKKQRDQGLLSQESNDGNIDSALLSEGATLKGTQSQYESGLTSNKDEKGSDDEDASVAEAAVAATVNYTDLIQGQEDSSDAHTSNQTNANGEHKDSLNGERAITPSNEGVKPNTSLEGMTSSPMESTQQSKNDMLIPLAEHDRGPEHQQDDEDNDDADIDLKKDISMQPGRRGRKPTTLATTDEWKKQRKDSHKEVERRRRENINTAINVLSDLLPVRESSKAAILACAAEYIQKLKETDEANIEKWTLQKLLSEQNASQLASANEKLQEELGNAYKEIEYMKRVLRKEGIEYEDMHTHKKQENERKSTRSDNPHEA
GAAATCTGAAATTTTGACGTGACATGAGAGGACTAG: 578 a.u.
CTATGTGTGTTGGCTCTCACCTGCGCTTGCTGCTTC: 521 a.u.
GAATTTGCATTGTCGCACGTGACCAGCGACAAATAG: 19600 a.u.
TGTACGAAGCTATGTGGTCACGTTATAGTAGTTAGG: 3670 a.u.
CTACTATTTAGTAGCAGGGTGACATGTTACTCCTTC: 589 a.u.
CTATGCCCGAAATCCAACGTGCATTCTATTCTCTTC: 568 a.u.
CTATTGTATTTCAACCACGTTCCATATATGTGGTTC: 782 a.u.
CTAAAATGTGGACATGATGACATAAGGTATGAGTTC: 568 a.u.
GAAATATGAATTACTCAGGTGTGAATTTTGCAATAG: 517 a.u.
CCTAACTACTATAGTGATTCACCATAGCTTCGTACA: 501 a.u.
GAACAAGAACTCGTTTACGTGCCGCGAAAAGTCTAG: 532 a.u.

Study 2 — method: RNA Bind-n-Seq; form: RNA; sample: in vitro; tested at: not given; relative to: input RNA pool; reading: higher = stronger binding; measurement: bound/input enrichment
Target: RING finger protein unkempt homolog, zinc fingers 1-6, GST-SBP tag (UNK, Homo sapiens, UniProt Q9C0B0, residues 30-357)
Notes: RNA with constant flanks, human and mouse sites, ends assumed
Constant ends, left off below: GGGAGUUCUACAGUCCGACGAUC … CAACAGAGGAUUGAGCAUCA
Target sequence (chain): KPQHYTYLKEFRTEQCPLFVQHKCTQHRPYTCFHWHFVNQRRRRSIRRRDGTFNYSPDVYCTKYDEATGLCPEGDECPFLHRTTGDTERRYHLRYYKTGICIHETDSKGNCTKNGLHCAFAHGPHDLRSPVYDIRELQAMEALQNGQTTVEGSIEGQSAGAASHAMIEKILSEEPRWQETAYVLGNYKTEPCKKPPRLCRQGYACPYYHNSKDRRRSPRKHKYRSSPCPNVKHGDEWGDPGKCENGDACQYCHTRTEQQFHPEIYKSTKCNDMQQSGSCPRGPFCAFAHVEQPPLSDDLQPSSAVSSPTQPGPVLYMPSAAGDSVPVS
GAGCCAUCCAGUGGCCCCCACCAGGAAAUGCAAGAGCUACCCACUGAUCUACUCCGGGAAGUGGAGGAGCCAUCCAGUGGCCCCUACCAGGAAAUGCAAGAGCUACCCACUGAUCUACUC: 0.0835 ratio
AUUGUCAAAACUUUAUAUCACCUAAAGUCAGAAUUUCAAGCAAUAAUACCUGCUGUUAAUUCCCACAUUCAGUCAGACUUGCUCCGGACCGUUAUUUUAGAAAUUCCUGAACUCCUCAGU: 0.678 ratio
UUGAAAACUGAUUCAAGUAAGUUUGAGUAUCACAAUGUUAGCUUUCUAAUUCCAUAAAAGUACUUGGUUUUUACAGUUUAUAAUCUGACAUCACCCCAGCGCCAUUUGUAAAGAGCAACU: 0.555 ratio
CCAGGUCCAGGGCCAGCCGCCAUGACGAACGUGUACUCCUUGGAUGGGAUUCUGGUGUUUGGUUUGCUCUUUGUUUGCACCUGUGCCUACUUCAAGAAAGUACCUCGUCUCAAAACCUGG: 0.104 ratio
ACCUUGGACGCCGCAAGAGAAGCUGUCAAGCCCCGCAGGCUCUGAUUCGGCGCCCUCCGCGUUCCUCGGCUGCUCCCGGCUUCCCUGUGCCUCGGUGGAGUAUUUGCGUUCGGGGCUGGG: 0.057 ratio
GAAGAUAAGCUGGAAUGUUCUGAAGAACUGGGUGAUCUUGUGAAAUCUGUGGACCCUACAUUGGCACUUAGUGUGUACCUAAGGGCUAACGUCCCAAAUAAAGUCAUUCAGUGCUUUGCA: 0.111 ratio
GCUGAAGAUGACAGCAAAAUUGAUUCAUGAAGUUUUUUGCCUCCCACGUUGGGAAGUCAUUAGUUGAACUAUUUUCACAUUGGCCCCCCACACAGGCCACUCUCUUCCCUUUCUUGGUGA: 0.325 ratio
GACUAUCACUUUGUCAUUUCUAGAGAACAAAUGGAGAAAGAUAUCCAAGAGCACAAAUUUAUAGAAGCUGGCCAGUACAAUGACAAUUUAUACGGAACCAGUGUGCAAUCUGUGAGAUUU: 0.638 ratio

Study 3 — target: CCND1, cyclin fold, Cln2 fusion (human); method: yeast growth competition, sequencing; sample: yeast; notes: weak parent motif; relative to: not given; reading: higher = stronger binding; measurement: normalised enrichment score
Starting sequence: DBF4 docking peptide (human); DDIVSKLVFDFVE; partner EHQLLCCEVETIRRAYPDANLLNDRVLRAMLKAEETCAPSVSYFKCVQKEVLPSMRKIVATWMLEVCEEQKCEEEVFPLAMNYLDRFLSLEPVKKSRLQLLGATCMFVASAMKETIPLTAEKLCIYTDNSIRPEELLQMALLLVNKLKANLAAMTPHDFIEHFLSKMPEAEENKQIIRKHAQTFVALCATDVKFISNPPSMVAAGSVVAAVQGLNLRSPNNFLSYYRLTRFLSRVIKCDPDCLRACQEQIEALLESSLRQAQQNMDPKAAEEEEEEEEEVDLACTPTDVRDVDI
S5A: 0.744
K6A: 0.729
E13A: 1.1
D2A: 1.1
V4A: 0.865
L7A: 0.736

Mixed results
PhoQ, residues 284 288 289 292 302 303 SASVAL — fold induction (PhoP, residues 12 14 15 18 19 IQFRS (Escherichia coli, UniProt P23836); Sort-seq, item: YFP reporter; E. coli; PhoQ-PhoP variant library, added: 10 µM Mg2+; relative to: high Mg2+ state, higher = stronger signaling): 8.51

A few entries again (mixed results):
PhoQ, residues 284 288 289 292 302 303 SASVAL — fold induction (PhoP, residues 12 14 15 18 19 IQFRS (Escherichia coli, UniProt P23836); Sort-seq, item: YFP reporter; E. coli; PhoQ-PhoP variant library, added: 10 µM Mg2+; relative to: high Mg2+ state, higher = stronger signaling): 8.51
